Measured values gathered from unrelated publications.
Each numbered part is a random draw from the data of one study; scales do not carry over between parts. Substitutions count along the parent as printed.

Series 1
Target: Phosphate system positive regulatory protein PHO4, full length, GST-tagged (PHO4, Saccharomyces cerevisiae, UniProt P07270, residues 1-312)
Technique: competition protein-binding microarray
Molecule type: double-stranded DNA, one strand shown
Sample: in vitro
Tested at: 2 µM
Notes: whole 60-bp probe, lowest competitor level
Added: Cbf1 competitor, 0.05 µM
Direction: higher = stronger binding
Constant ends, left off below: … GTCTTGATTCGCTTGACGCTGCTG
Target sequence (chain): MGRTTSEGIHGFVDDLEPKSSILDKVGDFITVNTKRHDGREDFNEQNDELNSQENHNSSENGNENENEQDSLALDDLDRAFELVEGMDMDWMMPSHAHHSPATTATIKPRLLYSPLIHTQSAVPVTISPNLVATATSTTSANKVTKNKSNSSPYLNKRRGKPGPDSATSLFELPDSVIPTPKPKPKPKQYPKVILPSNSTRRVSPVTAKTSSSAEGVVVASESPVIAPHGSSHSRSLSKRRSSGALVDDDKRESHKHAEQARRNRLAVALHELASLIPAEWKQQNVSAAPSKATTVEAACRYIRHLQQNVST
Sequence | fluorescence intensity [a.u.]
TGGGCCTGAAAACTACACGTGGTGAGAGCCACAGTA | 16400
CCGTAGGGACTTTTGCACGTTATTATGGGAATATCA | 7810
AATCTCGGTGAATTAACCGTGATGGATCACTTAGGT | 3930
AAAGCGGTAATTTGAGTGGTGGGTGCAGATATCTAT | 5430
TGGCGTACGACGACTCATGTGTGTTAGATTGGGACA | 5370
AAAGCGGTAATTTGGTTAGTGGGTGCAGATATCTAT | 4160
TGCGCAACAACTTGTCACCGGACTTTATGTCTAGAA | 2990
AAAGCGGTAATTTGTCACATGACTTCACATATCTAT | 7030
CATACCCAACCTTGACAAGTGGGTGAAGATATTTGT | 3900
CATTCAGTGCGTAACGACGCGAATAGGGCTTTGAAA | 3380
TAGGTGTTAAGAAAGCACGTGCCGATAGGGGTTTAG | 18200
CGTCCTAGTGATTGTGACGTGGGTGCCATGAGGAAG | 8020
CTAGTATTGAATGTTTTCGTGATGGTTTATTGAGAC | 4870
GTAATTTCAATAGCTCGCGTGGCCGAATGGCAACGC | 7770
TCCAACCTGCAAGGGGTCGTGCCAGTGACGAAAAGA | 11100
ATTTCCGGGACGAGTCACGCTGTTATCAATGACTTT | 6190
TGTGTCATCTTCGCGCGCGTGCTAAAAAAAACGAAT | 13400
CAAAAGCTGGTGTCCCACGTCAAGCCATCAACTTGG | 4470
AACTGTGAATGGGGATGCGTGACGGGTTCGTCTCTG | 7080

Series 2
Target: CCND2, cyclin fold, Cln2 fusion (human)
Technique: yeast growth competition, sequencing
Sample: yeast
Notes: weak parent motif
Baseline: not given
Direction: higher = stronger binding
Parent: MICAL3 docking peptide (human); LQLRRQLSFSEDS
Change | normalised enrichment score
LQLERQLSFSEDS [R4E] | -0.489
LQLRRQLSFPEDS [S10P] | 0.0668
LQLRRQLSFYEDS [S10Y] | 0.167
LQLRRQLSFSETS [D12T] | 0.194
LQLRRQLSFSWDS [E11W] | -0.17
LQLRRLLSFSEDS [Q6L] | -0.0599
LQLRRQLSFSIDS [E11I] | -0.44
LQLNRQLSFSEDS [R4N] | 0.128
LQGRRQLSFSEDS [L3G] | 0.371
LQLGRQLSFSEDS [R4G] | -0.063
LQLRRQVSFSEDS [L7V] | 0.415
LQLRRQLSRSEDS [F9R] | 0.13
LQLRRQLSFSTDS [E11T] | -0.0509
LWLRRQLSFSEDS [Q2W] | -0.118
LQLRRGLSFSEDS [Q6G] | 0.098
LQLRRQLSFSADS [E11A] | 0.228
LVLRRQLSFSEDS [Q2V] | 0.439
LQLRRNLSFSEDS [Q6N] | 0.0235
LQLRRQLSNSEDS [F9N] | -0.0472

Series 3
Target: Sal-like protein 4, full length isoform A (SALL4, Homo sapiens, UniProt Q9UJQ4, residues 1-1053)
Chain of UniProt Q9UJQ4 (whole entry, looked up): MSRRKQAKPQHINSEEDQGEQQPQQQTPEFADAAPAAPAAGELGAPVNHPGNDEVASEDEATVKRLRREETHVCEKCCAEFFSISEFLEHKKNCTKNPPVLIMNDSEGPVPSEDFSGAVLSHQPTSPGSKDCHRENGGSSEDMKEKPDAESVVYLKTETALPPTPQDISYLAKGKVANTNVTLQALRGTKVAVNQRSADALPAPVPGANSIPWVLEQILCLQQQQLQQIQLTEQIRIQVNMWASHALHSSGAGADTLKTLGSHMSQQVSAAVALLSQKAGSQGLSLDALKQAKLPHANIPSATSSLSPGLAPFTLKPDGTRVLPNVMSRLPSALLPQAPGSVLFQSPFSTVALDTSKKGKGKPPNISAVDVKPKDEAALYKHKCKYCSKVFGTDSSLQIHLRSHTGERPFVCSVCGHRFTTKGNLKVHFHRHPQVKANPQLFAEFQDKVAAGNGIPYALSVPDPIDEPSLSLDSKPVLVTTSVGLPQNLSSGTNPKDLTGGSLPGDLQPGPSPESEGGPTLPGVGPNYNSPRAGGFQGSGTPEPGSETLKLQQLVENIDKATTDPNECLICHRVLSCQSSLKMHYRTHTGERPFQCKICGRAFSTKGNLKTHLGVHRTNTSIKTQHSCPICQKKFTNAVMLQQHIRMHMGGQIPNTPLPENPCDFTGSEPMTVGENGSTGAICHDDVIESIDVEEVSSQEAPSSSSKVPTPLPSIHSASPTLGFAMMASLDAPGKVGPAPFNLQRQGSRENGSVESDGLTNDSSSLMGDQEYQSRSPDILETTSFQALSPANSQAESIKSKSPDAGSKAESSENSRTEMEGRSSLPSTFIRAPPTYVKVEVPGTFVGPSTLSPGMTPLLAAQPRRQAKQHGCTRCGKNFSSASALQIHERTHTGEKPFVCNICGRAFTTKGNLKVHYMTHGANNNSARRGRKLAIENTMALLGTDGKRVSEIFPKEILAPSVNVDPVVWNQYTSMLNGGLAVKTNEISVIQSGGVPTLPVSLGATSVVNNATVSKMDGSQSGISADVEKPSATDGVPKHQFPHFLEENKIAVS
Technique: universal PBM
Molecule type: double-stranded DNA, one strand shown
Sample: in vitro
Tested at: 600 nM
Notes: 8-mer, flanks averaged, mean of replicates
Direction: higher = stronger binding
Sequence | E-score
GTCACGAA | 0.0267
AAAAGCTA | 0.143
CTCATTCC | 0.0668
GACAAGGC | -0.23
CATTCTTC | 0.0698
CTTTCTTC | -0.0244
CTATCGAC | -0.204
GGCTACTA | 0.118
AGGGCCAT | -0.179
TCTAGAGA | 0.00739
ACTTCAAA | 0.105
GATAGTAC | -0.023
GCTGTATA | 0.195
CACTCTAG | -0.0655
AACACTGT | 0.0502
AGTACGGC | -0.186
CCGGTAGC | -0.402
AACCTGAC | -0.0141
AATAACGG | 0.321
TGATTGAA | 0.208
CCAGGCAA | -0.094
TCTCGAGA | -0.0518
GGGTATTA | 0.146
ACCTCGCT | -0.0582
CCCCTTAG | -0.309

Series 4
Target: Ras GTPase-activating protein-binding protein 1, C-terminal RGG region (G3BP1, Homo sapiens, UniProt Q13283)
Chain of UniProt Q13283 (whole entry, looked up): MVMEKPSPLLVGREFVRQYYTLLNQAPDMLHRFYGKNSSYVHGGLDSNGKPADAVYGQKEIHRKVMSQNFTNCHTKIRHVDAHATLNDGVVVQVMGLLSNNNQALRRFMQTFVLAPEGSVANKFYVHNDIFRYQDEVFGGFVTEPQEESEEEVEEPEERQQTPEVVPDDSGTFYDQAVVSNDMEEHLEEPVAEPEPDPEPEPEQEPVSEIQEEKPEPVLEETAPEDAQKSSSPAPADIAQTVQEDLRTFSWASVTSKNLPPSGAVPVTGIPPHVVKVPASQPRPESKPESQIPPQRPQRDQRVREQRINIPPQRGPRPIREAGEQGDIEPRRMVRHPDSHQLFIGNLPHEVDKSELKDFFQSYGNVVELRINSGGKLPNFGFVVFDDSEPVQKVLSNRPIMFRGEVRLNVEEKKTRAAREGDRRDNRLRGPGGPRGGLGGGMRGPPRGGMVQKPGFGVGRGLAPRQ
Technique: RNA Bind-n-Seq
Molecule type: RNA
Sample: in vitro
Tested at: 1 µM
Notes: whole 134-nt RNA, ends assumed
Added: 150 mM KCl
Baseline: input library
Direction: higher = stronger binding
Constant ends, left off below: GGGAGUUCUACAGUCCGACGAUC … UGGAAUUCUCGGGUGUCAAGG
Sequence | log2 enrichment
CAAGUCCUGUGCUACACAUCGUAUGUACCGAAUCGGUUUUUUUGGUGGUUUUUGGAAAGUAUUAUGUUACGCCGUUCGGAUCUGCACUUC | -1.72
CAAGUCCUGUGCUACACAUCGUAUGUACCGAAUCGGUUUUUUUGGUGGAAAAAGGAAAGUAUUAUGUUACGCCGUUCGGAUCUGCACUUC | -1.68
AGUCCUGUGCUACACAUCGUAUGUACCGAAUCGGCCCCCGGCCCCCGGGCCCCCGGGGAAAGUAUUAUGUUACGCCGUUCGGAUCUGCAC | -1.83
CCUCAAGUCCUGUGCUACACAUCGUAUGUACCGAAUCGGUGGAAAGGAAAGGAAAGUAUUAUGUUACGCCGUUCGGAUCUGCACUUCCAG | -0.79
UAACUUUAGAGGAGGAUCUGCUGGAUAUGGCAGUGGACGUGGAUUUGGGGAUGGCUAUAAUGGGUAUGGAGGAGGACCUGGAGGUGGCAA | -0.815
AGUCCUGUGCUACACAUCGUAUGUACCGAAUCGGGGCCCCCGGCCCCCGGGCCCCCGGAAAGUAUUAUGUUACGCCGUUCGGAUCUGCAC | -1.81
ACCAUGCAGGUGGGCAUCUUUGGGAAGUGGGGCAAGGGGGGGAUAGGGAGGGGGGUAACAGUUUGGGAACAGGUGGUCCCAGGUCGUUUC | 2.32
CCUGUGCUACACAUCGUAUGUACCGAAUCGGGGAAAAAAGGAAAAAAGGGGAAAAAAGGGAAAGUAUUAUGUUACGCCGUUCGGAUCUGC | -1.72
AGUCCUGUGCUACACAUCGUAUGUACCGAAUCAAAUUUUUUUAAAUUUAAAUUUAAAAAAGUAUUAUGUUACGCCGUUCGGAUCUGCACU | -2.71
